Assay results of several laboratories.
Organism: Mycobacterium tuberculosis

With `CCOC(=O)CC[C@@H](NC(=O)c1ccc(N(C)Cc2ccc3[nH]c(C)nc(=O)c3c2)s1)C(=O)OCC` the MIC90 was 43.7 µM (pptT knockdown without ATc).
`CCn1cc(C(=O)NCCNCCO)c(=O)c2cc(OCc3cccc(C(F)(F)F)c3)c(Cl)cc21` gave an MIC90 of 1 to 2 µM.
For `Cc1nc2ccc(CN(C)c3ccc(C(=O)N[C@@H](CCC(=O)O)C(=O)O)s3)cc2c(=O)[nH]1`, the MIC90 was over 100 µM (pptT knockdown without ATc).
The MIC90 of `Cc1cnc(N)c(S(=O)(=O)N(C)CC(=O)Nc2ccn(C)c(=O)c2)c1` is reported as over 100 µM (microbial growth; H37RV; 10 days).
`O=C(NCCNCCO)c1cn(Cc2ccccc2)c2cc(OCc3ccc(C(F)(F)F)cc3)c(Cl)cc2c1=O` gave an MIC90 of 0.4 µM.
`CN1C/C(=C\c2ccccc2)C2=NN(C(N)=S)[C@H](c3ccccc3)[C@@H]2C1` has an MIC90 of 160 µg/mL (microbial growth; H37RV).
`CCCCCCCCCC1N=C(N)N=C(N)N1c1ccc(Cl)cc1.Cl` (racemic) has an MIC90 of 1.12 µM (LORA; non-replicating, low oxygen).
With `Cc1cc(S(=O)(=O)N(C)CC(=O)Nc2ccc(N3CCOCC3)c(Cl)c2)c2[nH]ncc2c1` the MIC90 was 12 µM (microbial growth; H37RV; 10 days).
`COC(=O)[C@@H](CCCNC(=O)OC(C)(C)C)NC(=O)c1ccc(NCc2ccc3nc(N)nc(N)c3c2Cl)cc1` has an MIC90 of under 0.1 µM (pptT knockdown without ATc).
With `CN[C@@H]1[C@H](O)[C@H](NC)[C@H]2O[C@]3(O)[C@H](O[C@@H]2[C@H]1O)O[C@H](C)C[C@H]3NC(=O)Cc1ccccn1` the MIC90 was 3.8 µg/mL (MDR and XDR isolates).
`COc1ccc(NC(=O)CN(C)S(=O)(=O)c2cc(C)cc3cn[nH]c23)cc1Cl` has an MIC90 of 25 µM (microbial growth; H37RV; 10 days).
`Cc1cc(Nc2nc(N3CCC(c4ccncc4)C3)ncc2F)[nH]n1` (centres unmarked) gave an MIC90 of 0.328 µM (microbial growth; H37RV).
With `CCn1cc(C(=O)NCCOCCO)c(=O)c2cc(Cl)c(OCc3ccc(C(F)(F)F)cc3)cc21` the MIC90 was over 125 µM.
`CN[C@@H]1[C@H](O)[C@H](NC)[C@H]2O[C@]3(O)[C@H](O[C@@H]2[C@H]1O)O[C@H](C)C[C@H]3NC(=O)Cc1ccc(Cl)cn1` gave an MIC90 of 1.9 µg/mL (MDR and XDR isolates).
`Cc1cnc(N)c(S(=O)(=O)N(C)CC(=O)Nc2ccc(N3CCOCC3)c(Cl)c2)c1` gave an MIC90 of over 100 µM (microbial growth; H37RV; 10 days).
The MIC90 of `C#CCN(Cc1ccc2nc(N)nc(N)c2c1)c1ccc(C(=O)N[C@@H](CCC(=O)OCC)C(=O)OCC)cc1` is reported as under 0.2 µM (pptT knockdown without ATc).
`Cc1cnc(N)c(S(=O)(=O)N(C)CC(=O)Nc2ccc(N3CCN(C)CC3)c(Cl)c2)c1` has an MIC90 of over 100 µM (microbial growth; H37RV; 10 days).
The MIC90 of `C#CCN(Cc1ccc2[nH]cnc(=O)c2c1)c1ccc(C(=O)N[C@@H](CCC(=O)O)C(=O)O)cc1` is reported as over 100 µM (microbial growth; H37RV).
`Cc1cc(S(=O)(=O)N(C)CC(=O)Nc2ccn(C)c(=O)c2)c2[nH]ncc2c1` gave an MIC90 of 3.1 µM (microbial growth; H37RV; 10 days).
`CC1=NN(c2ccc(C(=O)O)cc2)C(=O)C1=Cc1ccc(-c2cc(C)c(C)cc2[N+](=O)[O-])o1` gave an MIC90 of 45 µM (microbial growth; H37RV).
`O=C(NCCNCCO)c1cn(Cc2ccccc2)c2c(Cl)c(OCc3ccc(C(F)(F)F)cc3)c(Cl)cc2c1=O` gave an MIC90 of 0.8 to 4 µM.
`O=c1c2ccccc2[nH]c(=S)n1Cc1cccnc1` gave an MIC90 of 3 µM (pptT knockdown without ATc).
The MIC90 of `COc1ccc(NC(=O)CN(C)S(=O)(=O)c2cc(C)cnc2N)cc1Cl` is reported as over 100 µM (microbial growth; H37RV; 10 days).
